Published values pooled from the literature.
Every numbered part comes from another study and shows a few of its results, in no order.
Chain of UniProt Q04771 (whole entry, looked up): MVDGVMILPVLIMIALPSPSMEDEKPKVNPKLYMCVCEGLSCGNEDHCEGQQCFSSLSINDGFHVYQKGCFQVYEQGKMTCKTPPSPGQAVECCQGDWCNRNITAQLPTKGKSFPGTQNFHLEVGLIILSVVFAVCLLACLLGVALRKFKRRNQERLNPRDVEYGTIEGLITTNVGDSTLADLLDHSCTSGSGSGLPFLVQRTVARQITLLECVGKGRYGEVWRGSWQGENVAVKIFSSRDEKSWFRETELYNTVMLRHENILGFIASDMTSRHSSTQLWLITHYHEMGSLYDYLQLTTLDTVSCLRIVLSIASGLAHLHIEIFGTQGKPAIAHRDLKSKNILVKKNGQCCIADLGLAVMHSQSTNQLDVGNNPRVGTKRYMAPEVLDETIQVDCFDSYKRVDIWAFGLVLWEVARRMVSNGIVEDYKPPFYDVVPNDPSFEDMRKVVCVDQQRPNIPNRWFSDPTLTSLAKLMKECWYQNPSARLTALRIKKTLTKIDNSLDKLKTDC

Block 1
Target: Prothrombin, mature alpha-thrombin (F2, Homo sapiens, UniProt P00734)
Method: aptamer microarray, sandwich
Form: DNA with 2'F-ANA
Medium: in vitro
Tested at: 200 nM
Notes: whole 15-mer aptamer, many near background
Together with: Cy3 exosite-II aptamer, 400 nM
Reading: higher = stronger binding
Oligonucleotide: GGTTGGTGTGGTTGG
| Modification | mean fluorescence intensity |
| --- | --- |
| 2'F-ANA at 2 3 4 7 8 9 10 12 13 | 295 a.u. |
| 2'F-ANA at 3 4 5 6 7 8 9 10 14 | 47.3 a.u. |
| 2'F-ANA at 7 8 10 11 13 15 | 162 a.u. |
| 2'F-ANA at 1 4 6 8 10 15 | 69 a.u. |
| 2'F-ANA at 2 3 6 7 9 10 13 14 | 300 a.u. |
| 2'F-ANA at 3 4 5 6 7 8 9 12 13 15 | 120 a.u. |
| 2'F-ANA at 4 5 6 7 8 11 12 13 14 | 52.8 a.u. |
| 2'F-ANA at 1 2 9 14 | 51.9 a.u. |

Block 2
Target: PABPC1L2, full length, GST fusion (mouse, UniProt A0ABA7IW68)
Method: RNAcompete
Form: RNA
Medium: in vitro
Tested at: 20 nM
Notes: 7-mer, probes averaged, single round
Relative to: mean of 7-mers
Reading: higher = stronger binding
Target sequence (chain): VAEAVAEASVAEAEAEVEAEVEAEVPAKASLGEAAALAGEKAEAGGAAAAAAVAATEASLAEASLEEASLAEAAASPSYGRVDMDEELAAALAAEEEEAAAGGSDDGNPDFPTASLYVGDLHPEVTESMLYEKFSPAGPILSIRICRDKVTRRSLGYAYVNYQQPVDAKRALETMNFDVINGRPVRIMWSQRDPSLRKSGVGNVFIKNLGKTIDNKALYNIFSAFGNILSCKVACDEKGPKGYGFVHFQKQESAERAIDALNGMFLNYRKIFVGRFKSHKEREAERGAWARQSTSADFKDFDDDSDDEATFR
| Oligonucleotide | 7-mer Z-score |
| --- | --- |
| GUAGGCC | -0.0301 |
| ACAAGUA | 0.144 |
| CUCACAG | -0.175 |
| CGUUUGA | -0.44 |
| GCAAGAC | 0.0569 |
| CCCUCCG | -0.416 |
| UACUAUA | -0.0899 |
| CUACUCG | -0.3 |

Block 3
Target: TAR DNA-binding protein 43, full length, His tag (TARDBP, Homo sapiens, UniProt Q13148, residues 1-414)
Method: RNA Bind-n-Seq
Form: RNA
Medium: in vitro
Tested at: 20 nM
Notes: 6-mer, flanks averaged, single round
Together with: 150 mM LiCl
Relative to: input library
Reading: higher = stronger binding
| Oligonucleotide | 6-mer enrichment (R) |
| --- | --- |
| AACCUG | 0.842 |
| UGCAGA | 0.912 |
| CUAUAC | 0.855 |
| ACAAAA | 0.849 |
| CUGAUC | 0.841 |
| GAUCUG | 0.89 |
| GAACAG | 0.9 |
| AGCUGC | 0.917 |

Further values, each from its own experiment
| SMILES | target | assay | conditions | how to read | measurement | result |
| --- | --- | --- | --- | --- | --- | --- |
| Cc1ccc(NC(=O)c2ccc(CN3CCN(C)CC3)cc2)cc1Nc1nc(-c2cccnc2)cs1 | Activin receptor type-1 (ACVR1, Homo sapiens, UniProt Q04771) | enzyme activity, inhibitor | 0.5 µM | relative to: control | remaining activity | 101% |

For quick reference, copied from above (block 2):
| Oligonucleotide | 7-mer Z-score |
| --- | --- |
| CUCACAG | -0.175 |
| CGUUUGA | -0.44 |
| GCAAGAC | 0.0569 |
| CCCUCCG | -0.416 |
